Measurements pooled from the literature.
Protocols differ between the studies behind these lines. ± gives the spread as reported. Converted amounts (≈) assume the structure as drawn.

Cc1ccc(CNC(=O)c2cn(Cc3ccc(Cl)cc3)c3ccc(Oc4ccccc4)cc3c2=O)cc1 — CC50 (Jurkat; 72 h): 45.7 ± 7.93 µM
COc1ccc(N=Nc2c(N)nn3c(-c4ccc(Cl)cc4Cl)cc(-c4ccc(OCc5ccccc5)cc4)nc23)cc1 — MIC (Escherichia coli; ATCC 25955): 31.3 µg/mL (≈ 52.6 µM)
O=C(NCc1ccc(O)cc1)c1cn(Cc2ccc(F)cc2)c2ccc(Oc3ccccc3)cc2c1=O — CC50 (T47D; 72 h, 10% FBS): 85.7 ± 2.4 µM
COc1cc(-c2nc3ccccc3c(=O)n2Nc2ccc([N+](=O)[O-])cc2[N+](=O)[O-])ccc1OCc1cn(CC(=O)Nc2ccccc2)nn1 — inhibition (mushroom tyrosinase; enzyme activity; 40 µM, together with: L-DOPA): 26.1 ± 5.03%
O=C(NCc1ccc(C(F)(F)F)cc1)c1cn(Cc2ccc(F)cc2)c2ccc(Oc3ccccc3)cc2c1=O — CC50 (T47D; 72 h, 10% FBS): 39.8 ± 0.96 µM
COCCOc1cnc2ccn([C@H](C)c3nnc4c(F)cc(-c5cnn(C)c5)cn34)c(=O)c2c1 — half-life (patients, plasma; oral, 50 mg once daily, day 1): 6.9 h
COc1cc(-c2nc3ccccc3c(=O)n2Nc2ccc([N+](=O)[O-])cc2[N+](=O)[O-])ccc1OCc1cn(CC(=O)Nc2ccccc2F)nn1 — inhibition (mushroom tyrosinase; enzyme activity; 40 µM, together with: L-DOPA): 21.9 ± 3.59%
O=C(NCc1ccccc1)c1cn(Cc2ccc(C(F)(F)F)cc2)c2ccc(Oc3ccccc3)cc2c1=O — CC50 (MDA-MB-231/LM2-4; DNS; 72 h, 10% FBS): 11.7 ± 0.47 µM
Cc1ccc(N=Nc2c(N)nn3c(-c4ccc(Cl)cc4Cl)cc(-c4ccc(OCc5ccccc5)cc4)nc23)cc1 — MFC/MIC ratio (Saccharomyces cerevisiae; broth microdilution; ATCC 9763): 3.9

Repeated from above:
O=C(NCc1ccc(O)cc1)c1cn(Cc2ccc(F)cc2)c2ccc(Oc3ccccc3)cc2c1=O — CC50 (T47D; 72 h, 10% FBS): 85.7 ± 2.4 µM
